Measured values pooled from the literature.
Compare with care: the assays were run in different laboratories.
B1: HDA6 (Arabidopsis thaliana, UniProt Q9FML2); sequence looked up; chain MEADESGISLPSGPDGRKRRVSYFYEPTIGDYYYGQGHPMKPHRIRMAHSLIIHYHLHRRLEISRPSLADASDIGRFHSPEYVDFLASVSPESMGDPSAARNLRRFNVGEDCPVFDGLFDFCRASAGGSIGAAVKLNRQDADIAINWGGGLHHAKKSEASGFCYVNDIVLGILELLKMFKRVLYIDIDVHHGDGVEEAFYTTDRVMTVSFHKFGDFFPGTGHIRDVGAEKGKYYALNVPLNDGMDDESFRSLFRPLIQKVMEVYQPEAVVLQCGADSLSGDRLGCFNLSVKGHADCLRFLRSYNVPLMVLGGGGYTIRNVARCWCYETAVAVGVEPDNKLPYNEYFEYFGPDYTLHVDPSPMENLNTPKDMERIRNTLLEQLSGLIHAPSVQFQHTPPVNRVLDEPEDDMETRPKPRIWSGTATYESDSDDDDKPLHGYSCRGGATTDRDSTGEDEMDDDNPEPDVNPPSS
B2: GDF15 mature (Homo sapiens, UniProt Q99988); sequence looked up; chain ARARNGDHCPLGPGRCCRLHTVRASLEDLGWADWVLSPREVQVTMCIGACPSQFRAANMHAQIKTSLHRLKPDTVPAPCCVPASYNPMVLIQKTDTGVSLQTYDDLLAKDCHCI
B3: capsid protein residues 15-end 15-324 (Staphylococcus phage 80alpha, UniProt A4ZFB3); sequence looked up; chain ASNNVKPQVFNPDNVMMHEKKDGTLMNEFTTPILQEVMENSKIMQLGKYEPMEGTEKKFTFWADKPGAYWVGEGQKIETSKATWVNATMRAFKLGVILPVTKEFLNYTYSQFFEEMKPMIAEAFYKKFDEAGILNQGNNPFGKSIAQSIEKTNKVIKGDFTQDNIIDLEALLEDDELEANAFISKTQNRSLLRKIVDPETKERIYDRNSDSLDGLPVVNLKSSNLKRGELITGDFDKLIYGIPQLIEYKIDETAQLSTVKNEDGTPVNLFEQDMVALRATMHVALHIADDKAFAKLVPADKRTDSVPGEV
B4: PUM1 701-774 (Homo sapiens, UniProt Q14671); sequence looked up; chain TGSGSRRDSLTGSSDLYKRTSSSLTPIGHSFYNGLSFSSSPGPVGMPLPSQGPGHSQTPPPSLSSHGSSSSLNL
B5: PUM1 589-1186 (Homo sapiens, UniProt Q14671); chain ISSSAAQAAVAAAAASANGAAGGLAGTTNGPFRPLGTQQPQPQPQQQPNNNLASSSFYGNNSLNSNSQSSSLFSQGSAQPANTSLGFGSSSSLGATLGSALGGFGTAVANSNTGSGSRRDSLTGSSDLYKRTSSSLTPIGHSFYNGLSFSSSPGPVGMPLPSQGPGHSQTPPPSLSSHGSSSSLNLGGLTNGSGRYISAAPGAEAKYRSASSASSLFSPSSTLFSSSRLRYGMSDVMPSGRSRLLEDFRNNRYPNLQLREIAGHIMEFSQDQHGSRFIQLKLERATPAERQLVFNEILQAAYQLMVDVFGNYVIQKFFEFGSLEQKLALAERIRGHVLSLALQMYGCRVIQKALEFIPSDQQNEMVRELDGHVLKCVKDQNGNHVVQKCIECVQPQSLQFIIDAFKGQVFALSTHPYGCRVIQRILEHCLPDQTLPILEELHQHTEQLVQDQYGNYVIQHVLEHGRPEDKSKIVAEIRGNVLVLSQHKFASNVVEKCVTHASRTERAVLIDEVCTMNDGPHSALYTMMKDQYANYVVQKMIDVAEPGQRKIVMHKIRPHIATLRKYTYGKHILAKLEKYYMKNGVDLGPICGPPNGII
B6: FUS 164-526 (Homo sapiens, UniProt P35637); sequence looked up; chain SSGGGGGGGGGGNYGQDQSSMSSGGGSGGGYGNQDQSGGGGSGGYGQQDRGGRGRGGSGGGGGGGGGGYNRSSGGYEPRGRGGGRGGRGGMGGSDRGGFNKFGGPRDQGSRHDSEQDNSDNNTIFVQGLGENVTIESVADYFKQIGIIKTNKKTGQPMINLYTDRETGKLKGEATVSFDDPPSAKAAIDWFDGKEFSGNPIKVSFATRRADFNRGGGNGRGGRGRGGPMGRGGYGGGGSGGGGRGGFPSGGGGGGGQQRAGDWKCPNPTCENMNFSWRNECNQCKAPKPDGPGGGPGGSHMGGNYGDDRRGGRGGYDRGGYRGRGGDRGGFRGGRGGGDRGGFGPGKMDSRGEHRQDRRERPY
B7: FAM126B 1-308 (Homo sapiens, UniProt Q8IXS8); chain MLGTDRCVVEEWLSEFKALPDTQITSYAATLHRKKTLVPALYKVIQDSNNELLEPVCHQLFELYRSSEVRLKRFTLQFLPELMWVYLRLTVSRDRQSNGCIEALLLGIYNLEIADKDGNNKVLSFTIPSLSKPSIYHEPSTIGSMALTEGALCQHDLIRVVYSDLHPQRETFTAQNRFEVLSFLMLCYNSAIVYMPASSYQSLCRMGSRVCVSGFPRQHEKHWKELCGRIVLDPEFMVQLLTGVYYAMYNGQWDLGQEVLDDIIYRAQLELFSQPLLVANAMKNSLPFDAPDSTQEGQKVLKVEVTPT
B8: POL12 (Saccharomyces cerevisiae, UniProt P38121); sequence looked up; chain MSGSIDVITHFGPDADKPEIITALENLTKLHALSVEDLYIKWEQFSNQRRQTHTDLTSKNIDEFKQFLQLQMEKRANQISSSSKVNTSTKKPVIKKSLNSSPLFGLSIPKTPTLKKRKLHGPFSLSDSKQTYNVGSEAETNEKGNSSLKLEFTPGMAEDAVGDSAPLSHAKSSDAKTPGSSTFQTPTTNTPTTSRQNVPAGEILDSLNPENIEISSGNPNVGLLSTEEPSYNQVKVEPFYDAKKYKFRTMRQNLQEASDVLDDQIESFTKIIQNHYKLSPNDFADPTIQSQSEIYAVGRIVPDSPTYDKFLNPESLSLETSRMGGVGRRVRLDLSQVNELSFFLGQIVAFKGKNANGDYFTVNSILPLPYPNSPVSTSQELQEFQANLEGSSLKVIVTCGPYFANDNFSLELLQEFIDSINNEVKPHVLIMFGPFIDITHPLIASGKLPNFPQFKTQPKTLDELFLKLFTPILKTISPHIQTVLIPSTKDAISNHAAYPQASLIRKALQLPKRNFKCMANPSSFQINEIYFGCSNVDTFKDLKEVIKGGTTSSRYRLDRVSEHILQQRRYYPIFPGSIRTRIKPKDVSTKKETNDMESKEEKVYEHISGADLDVSYLGLTEFVGGFSPDIMIIPSELQHFARVVQNVVVINPGRFIRATGNRGSYAQITVQCPDLEDGKLTLVEGEEPVYLHNVWKRARVDLIAS
B9: POL30 1-258 K127G (Saccharomyces cerevisiae, UniProt P15873); chain MLEAKFEEASLFKRIIDGFKDCVQLVNFQCKEDGIIAQAVDDSRVLLVSLEIGVEAFQEYRCDHPVTLGMDLTSLSKILRCGNNTDTLTLIADNTPDSIILLFEDTKKDRIAEYSLKLMDIDADFLGIEELQYDSTLSLPSSEFSKIVRDLSQLSDSINIMITKETIKFVADGDIGSGSVIIKPFVDMEHPETSIKLEMDQPVDLTFGAKYLLDIIKGSSLSDRVGIRLSSEAPALFQFDLKSGFLQFFLAPKFNDEE
B10: PSMG3/PSMG4 heterodimer (Homo sapiens); chain 1 MEDTPLVISKQKTEVVCGVPTQVVCTAFSSHILVVVTQFGKMGTLVSLEPSSVASDVSKPVLTTKVLLGQDEPLIHVFAKNLVAFVSQEAGNRAVLLAVAVKDKSMEGLKALREVIRVCQVW; chain 2 MEGLVVAAGGDVSLHNFSARLWEQLVHFHVMRLTDSLFLWVGATPHLRNLAVAMCSRYDSIPVSTSLLGDTSDTTSTGLAQRLARKTNKQVFVSYNLQNTDSNFALLVENRIKEEMEAFPEKF
B11: BECN1 1-171 (Homo sapiens, UniProt A0A024R1X5); sequence looked up; chain MEGSKTSNNSTMQVSFVCQRCSQPLKLDTSFKILDRVTIQELTAPLLTTAQAKPGETQEEETNSGEEPFIETPRQDGVSRRFIPPARMMSTESANSFTLIGEASDGGTMENLSRRLKVTGDLFDIMSGQTDVDHPLCEECTDTLLDQLDTQLNVTENECQNYKRCLEILEQ
B12: HY5 (Arabidopsis thaliana, UniProt O24646); sequence looked up; chain MQEQATSSLAASSLPSSSERSSSSAPHLEIKEGIESDEEIRRVPEFGGEAVGKETSGRESGSATGQERTQATVGESQRKRGRTPAEKENKRLKRLLRNRVSAQQARERKKAYLSELENRVKDLENKNSELEERLSTLQNENQMLRHILKNTTGNKRGGGGGSNADASL
B13: cysJ 237-599 (Escherichia coli, UniProt P38038); sequence looked up; chain LVASLSVNQKITGRNSEKDVRHIEIDLGDSGMRYQPGDALGVWYQNDPALVKELVELLWLKGDEPVTVEGKTLPLNEALQWHFELTVNTANIVENYATLTRSETLLPLVGDKAKLQHYAATTPIVDMVRFSPAQLDAEALINLLRPLTPRLYSIASSQAEVENEVHVTVGVVRYDVEGRARAGGASSFLADRVEEEGEVRVFIEHNDNFRLPANPETPVIMIGPGTGIAPFRAFMQQRAADEAPGKNWLFFGNPHFTEDFLYQVEWQRYVKDGVLTRIDLAWSRDQKEKVYVQDKLREQGAELWRWINDGAHIYVCGDANRMAKDVEQALLEVIAEFGGMDTEAADEFLSELRVERRYQRDVY
Sequence of UniProt P13382 (whole entry, looked up): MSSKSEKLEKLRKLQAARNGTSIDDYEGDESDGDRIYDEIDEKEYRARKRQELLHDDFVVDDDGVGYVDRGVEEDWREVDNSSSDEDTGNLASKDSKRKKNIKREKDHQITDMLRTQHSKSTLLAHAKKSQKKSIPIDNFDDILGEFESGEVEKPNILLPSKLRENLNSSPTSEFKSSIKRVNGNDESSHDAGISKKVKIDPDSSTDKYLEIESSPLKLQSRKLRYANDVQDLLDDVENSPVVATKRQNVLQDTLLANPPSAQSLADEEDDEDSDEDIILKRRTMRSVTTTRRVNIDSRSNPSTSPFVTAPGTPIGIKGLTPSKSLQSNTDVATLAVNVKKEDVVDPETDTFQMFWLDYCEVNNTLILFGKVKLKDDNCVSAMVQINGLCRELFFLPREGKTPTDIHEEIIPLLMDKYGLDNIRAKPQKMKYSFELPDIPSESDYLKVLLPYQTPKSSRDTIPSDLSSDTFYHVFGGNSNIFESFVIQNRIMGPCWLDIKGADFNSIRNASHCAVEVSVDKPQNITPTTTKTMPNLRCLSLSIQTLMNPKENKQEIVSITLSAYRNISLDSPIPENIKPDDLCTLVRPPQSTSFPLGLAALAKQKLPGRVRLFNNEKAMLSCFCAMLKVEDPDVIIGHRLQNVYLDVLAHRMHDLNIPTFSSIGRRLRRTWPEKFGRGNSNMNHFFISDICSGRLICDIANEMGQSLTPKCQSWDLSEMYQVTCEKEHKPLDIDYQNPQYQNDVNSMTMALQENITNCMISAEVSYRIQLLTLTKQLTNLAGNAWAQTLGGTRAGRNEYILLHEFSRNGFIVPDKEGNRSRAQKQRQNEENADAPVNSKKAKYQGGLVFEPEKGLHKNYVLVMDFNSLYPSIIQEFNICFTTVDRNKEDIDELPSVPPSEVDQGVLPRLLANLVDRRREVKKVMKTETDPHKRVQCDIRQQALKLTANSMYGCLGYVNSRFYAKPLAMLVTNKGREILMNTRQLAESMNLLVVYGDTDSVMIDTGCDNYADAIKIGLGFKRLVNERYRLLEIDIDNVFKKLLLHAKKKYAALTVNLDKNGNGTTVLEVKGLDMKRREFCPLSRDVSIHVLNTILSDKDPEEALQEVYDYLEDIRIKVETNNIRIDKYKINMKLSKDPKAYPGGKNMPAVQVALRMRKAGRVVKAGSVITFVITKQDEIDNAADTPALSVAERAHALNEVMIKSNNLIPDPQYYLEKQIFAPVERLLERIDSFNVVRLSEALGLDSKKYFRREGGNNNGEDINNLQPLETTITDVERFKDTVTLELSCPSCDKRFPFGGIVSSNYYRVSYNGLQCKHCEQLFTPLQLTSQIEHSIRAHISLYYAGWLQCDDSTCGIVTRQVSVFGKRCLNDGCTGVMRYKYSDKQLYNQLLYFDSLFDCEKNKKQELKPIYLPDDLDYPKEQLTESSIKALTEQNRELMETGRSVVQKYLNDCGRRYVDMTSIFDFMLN
Sequence of UniProt P25789 (whole entry, looked up): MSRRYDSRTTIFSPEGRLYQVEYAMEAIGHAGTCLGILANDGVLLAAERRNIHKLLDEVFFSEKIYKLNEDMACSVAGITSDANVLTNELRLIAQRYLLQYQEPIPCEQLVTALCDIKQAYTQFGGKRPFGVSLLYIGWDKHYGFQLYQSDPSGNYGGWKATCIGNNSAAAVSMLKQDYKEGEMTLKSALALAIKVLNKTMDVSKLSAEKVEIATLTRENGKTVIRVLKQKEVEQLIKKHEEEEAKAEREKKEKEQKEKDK
Sequence of UniProt Q42384 (whole entry, looked up): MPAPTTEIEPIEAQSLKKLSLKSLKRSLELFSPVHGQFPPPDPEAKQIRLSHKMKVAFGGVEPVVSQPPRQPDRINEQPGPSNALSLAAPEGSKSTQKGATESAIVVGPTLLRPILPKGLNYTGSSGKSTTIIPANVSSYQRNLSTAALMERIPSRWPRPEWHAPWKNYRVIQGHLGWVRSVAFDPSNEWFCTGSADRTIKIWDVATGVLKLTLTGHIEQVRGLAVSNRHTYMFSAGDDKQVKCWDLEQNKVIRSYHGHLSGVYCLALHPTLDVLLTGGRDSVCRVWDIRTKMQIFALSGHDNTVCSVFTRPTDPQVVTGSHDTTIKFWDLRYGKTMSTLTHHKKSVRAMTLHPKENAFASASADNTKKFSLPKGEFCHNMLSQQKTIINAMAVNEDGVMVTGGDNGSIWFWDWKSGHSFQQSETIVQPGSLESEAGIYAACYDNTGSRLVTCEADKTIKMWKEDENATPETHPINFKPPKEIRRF
Sequence of UniProt Q9ULT0 (whole entry, looked up): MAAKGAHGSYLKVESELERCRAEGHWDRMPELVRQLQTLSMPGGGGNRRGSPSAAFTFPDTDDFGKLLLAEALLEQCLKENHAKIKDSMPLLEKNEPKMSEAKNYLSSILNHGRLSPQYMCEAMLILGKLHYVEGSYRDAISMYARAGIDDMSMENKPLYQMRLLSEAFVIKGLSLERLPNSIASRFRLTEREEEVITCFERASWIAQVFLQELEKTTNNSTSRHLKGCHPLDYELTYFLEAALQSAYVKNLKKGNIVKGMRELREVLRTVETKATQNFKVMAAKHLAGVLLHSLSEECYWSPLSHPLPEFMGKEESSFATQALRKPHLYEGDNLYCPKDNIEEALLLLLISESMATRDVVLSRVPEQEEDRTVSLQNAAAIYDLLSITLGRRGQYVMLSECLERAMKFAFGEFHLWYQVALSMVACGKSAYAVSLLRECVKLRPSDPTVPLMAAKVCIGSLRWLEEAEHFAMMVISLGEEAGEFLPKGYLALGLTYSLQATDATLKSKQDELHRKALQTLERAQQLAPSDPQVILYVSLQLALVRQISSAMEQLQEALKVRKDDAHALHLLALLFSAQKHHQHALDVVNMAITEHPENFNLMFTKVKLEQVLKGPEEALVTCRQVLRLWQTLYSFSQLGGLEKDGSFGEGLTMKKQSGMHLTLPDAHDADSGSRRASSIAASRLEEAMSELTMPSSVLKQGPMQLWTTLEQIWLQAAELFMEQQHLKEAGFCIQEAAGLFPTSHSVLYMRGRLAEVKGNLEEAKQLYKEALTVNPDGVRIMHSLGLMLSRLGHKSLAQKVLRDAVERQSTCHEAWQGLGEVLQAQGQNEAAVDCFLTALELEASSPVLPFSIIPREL
Sequence of UniProt F4HQA1 (whole entry, looked up): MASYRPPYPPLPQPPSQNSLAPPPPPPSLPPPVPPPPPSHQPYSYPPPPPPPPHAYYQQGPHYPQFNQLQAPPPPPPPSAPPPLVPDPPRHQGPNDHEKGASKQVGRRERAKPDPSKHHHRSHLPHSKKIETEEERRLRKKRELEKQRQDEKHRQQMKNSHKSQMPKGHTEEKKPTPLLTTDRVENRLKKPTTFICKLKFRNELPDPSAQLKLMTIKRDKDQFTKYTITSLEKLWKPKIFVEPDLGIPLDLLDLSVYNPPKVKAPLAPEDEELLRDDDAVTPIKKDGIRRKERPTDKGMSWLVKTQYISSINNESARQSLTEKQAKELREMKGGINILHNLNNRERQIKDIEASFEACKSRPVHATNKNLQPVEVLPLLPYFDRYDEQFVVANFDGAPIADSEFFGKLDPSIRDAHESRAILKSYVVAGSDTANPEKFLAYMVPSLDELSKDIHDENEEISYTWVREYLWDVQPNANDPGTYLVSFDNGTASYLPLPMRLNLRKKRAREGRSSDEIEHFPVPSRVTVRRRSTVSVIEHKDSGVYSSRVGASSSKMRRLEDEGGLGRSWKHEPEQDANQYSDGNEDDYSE
Sequence of UniProt Q15036 (whole entry, looked up): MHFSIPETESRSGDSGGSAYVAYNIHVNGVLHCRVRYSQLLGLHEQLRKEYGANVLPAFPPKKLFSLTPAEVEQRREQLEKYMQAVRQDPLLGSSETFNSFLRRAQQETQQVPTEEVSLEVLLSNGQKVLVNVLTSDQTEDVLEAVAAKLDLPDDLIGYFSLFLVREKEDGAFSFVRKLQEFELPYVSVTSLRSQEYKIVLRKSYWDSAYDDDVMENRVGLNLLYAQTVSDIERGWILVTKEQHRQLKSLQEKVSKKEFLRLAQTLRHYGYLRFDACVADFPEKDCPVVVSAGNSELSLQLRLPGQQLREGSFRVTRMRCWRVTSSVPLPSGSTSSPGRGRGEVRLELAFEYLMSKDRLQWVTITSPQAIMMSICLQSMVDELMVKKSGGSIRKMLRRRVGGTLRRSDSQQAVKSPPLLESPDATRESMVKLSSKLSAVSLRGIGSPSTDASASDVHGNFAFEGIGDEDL
Sequence of UniProt P57768 (whole entry, looked up): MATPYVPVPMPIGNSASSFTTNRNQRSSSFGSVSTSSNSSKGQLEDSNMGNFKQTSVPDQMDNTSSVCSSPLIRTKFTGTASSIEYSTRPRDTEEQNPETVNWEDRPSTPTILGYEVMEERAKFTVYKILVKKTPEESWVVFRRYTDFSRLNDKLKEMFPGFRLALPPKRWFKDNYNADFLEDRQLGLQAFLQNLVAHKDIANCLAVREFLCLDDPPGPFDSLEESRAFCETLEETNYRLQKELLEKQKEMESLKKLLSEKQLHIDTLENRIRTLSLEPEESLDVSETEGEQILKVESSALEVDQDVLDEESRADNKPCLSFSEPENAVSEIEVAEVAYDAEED
Sequence of UniProt Q6UXV0 (whole entry, unmodified, looked up): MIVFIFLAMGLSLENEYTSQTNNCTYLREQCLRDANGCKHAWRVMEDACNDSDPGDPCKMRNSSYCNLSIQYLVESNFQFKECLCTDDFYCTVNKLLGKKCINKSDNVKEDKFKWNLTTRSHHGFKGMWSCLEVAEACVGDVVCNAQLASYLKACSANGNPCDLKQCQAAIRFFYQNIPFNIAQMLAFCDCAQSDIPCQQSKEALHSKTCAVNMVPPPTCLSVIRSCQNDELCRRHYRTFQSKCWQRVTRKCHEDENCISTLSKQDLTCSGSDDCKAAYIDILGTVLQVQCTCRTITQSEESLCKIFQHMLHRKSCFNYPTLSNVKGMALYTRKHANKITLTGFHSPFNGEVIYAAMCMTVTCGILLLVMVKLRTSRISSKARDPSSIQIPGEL

Molecule	target or system	assay	system	setting	quantity	result
GPTEGSDRSASSLNHTILAGVHSNDHSVV (LPAR1 336-364 (Homo sapiens, UniProt Q92633); sequence looked up)	GIPC1 PDZ1 133-213 (Homo sapiens, UniProt O14908)	ELISA	–	–	binding	binds
DVLLLDVTPLS (HSPA9 interdomain linker, 434-444 (Homo sapiens))	HSPA9 NBD 52-431 Y128C (Homo sapiens, UniProt P38646)	BLI	peptide	together with: ADP	binding	binds
B1 (HDA6)	PAF1 (Arabidopsis thaliana, UniProt F4HQA1)	pull-down	–	–	binding	binds
ENEEDILVVTTQG (CALCOCO2 128-140 (Homo sapiens); N-terminal FITC)	RB1CC1 1490-1594 (Homo sapiens, UniProt Q8TDY2)	fluorescence polarisation	peptide	–	binding	binds
B2 (GDF15 mature)	GFRAL 19-351 (Homo sapiens, UniProt Q6UXV0)	ELISA	–	–	binding	binds
B3	portal protein dodecamer (Staphylococcus phage 80alpha, UniProt A4ZFA8)	cryo-EM	–	–	binding	binds
B4 (PUM1 701-774)	CNOT1/CNOT2/CNOT3 C-terminal NOT module 1833-2361	pull-down	–	–	binding	binds
B5 (PUM1 589-1186)	CNOT1/CNOT2/CNOT3 NOT module 1833-2361	pull-down	–	–	binding	binds
SOG1 (Arabidopsis thaliana, UniProt Q6NQK2)	PRL1 (Arabidopsis thaliana, UniProt Q42384)	pull-down	–	–	binding	binds
dnaJ2 (Thermus thermophilus, UniProt Q56237)	PhoA mature , unfolded 23-471 (Escherichia coli, UniProt P00634)	NMR titration	–	–	binding	binds
SMARCA4 fragment (Homo sapiens) (sequence not shown)	ACTB (Homo sapiens, UniProt P60709)	pull-down	–	not purified	binding	binds
B6 (FUS 164-526)	NUP62 (Homo sapiens, UniProt P37198)	co-IP	–	–	binding	binds
B7 (FAM126B 1-308)	TTC7A (UniProt Q9ULT0)	SEC	–	–	binding	binds
GLMQWVSQV	Jurkat T cells expressing 1G4 TCR	NFAT-eGFP reporter, flow cytometry	peptide	concentration not given, HLA-A*02:01 NY-ESO system	reporter activation	36.7%
B8 (POL12)	POL1 (Saccharomyces cerevisiae, UniProt P13382)	cryo-EM	–	–	binding	binds
B9 (POL30 1-258 K127G)	ECO1 (Saccharomyces cerevisiae, UniProt P43605)	pull-down	–	–	binding	binds
B10 (PSMG3/PSMG4 heterodimer)	PSMA4 (Homo sapiens, UniProt P25789)	cryo-EM	–	–	binding	binds
B11 (BECN1 1-171)	BCL2L1 1-208 N52D/N66D (Homo sapiens, UniProt Q07817-1)	pull-down	–	–	binding	binds
SNX16 (Homo sapiens, UniProt P57768)	SNX17 (Homo sapiens, UniProt Q15036)	pull-down	–	–	binding	binds
B12 (HY5)	bHLH107 S62D/S72D (Arabidopsis, UniProt Q9LET0)	pull-down	–	–	binding	binds
TKQTARKSTGGKA (H3 peptide residues 3-x 4-16 (UniProt P68431); K9me3)	CBX3 29-81 D68L/C69D (Homo sapiens, UniProt Q13185)	array	peptide	–	binding	binds
B13 (cysJ 237-599)	cysI 1-570 (Escherichia coli, UniProt P17846)	cryo-EM structure	–	–	binding	binds
SKKVTRRPKASDYQRL (TGOLN1 YxxΦ peptide; N-terminal oleic acid/Lys(FITC)2)	AP2A2/AP2B1/AP2M1/AP2S1 core, lacking appendage domains (Mus musculus)	liposome binding	peptide, liposomes	–	binding	binds

Excerpt of the above:
Molecule	target or system	assay	system	setting	quantity	result
B13 (cysJ 237-599)	cysI 1-570 (Escherichia coli, UniProt P17846)	cryo-EM structure	–	–	binding	binds
DVLLLDVTPLS (HSPA9 interdomain linker, 434-444 (Homo sapiens))	HSPA9 NBD 52-431 Y128C (Homo sapiens, UniProt P38646)	BLI	peptide	together with: ADP	binding	binds
B7 (FAM126B 1-308)	TTC7A (UniProt Q9ULT0)	SEC	–	–	binding	binds
B4 (PUM1 701-774)	CNOT1/CNOT2/CNOT3 C-terminal NOT module 1833-2361	pull-down	–	–	binding	binds
